Results collected from several papers.
Every numbered part comes from another study and shows a few of its results, in no order.

Series 1
Target: Prothrombin, mature alpha-thrombin (F2, Homo sapiens, UniProt P00734)
Technique: aptamer microarray, sandwich
Form: DNA with 2'F-ANA
Medium: in vitro
Tested at: 200 nM
Setting: whole 15-mer aptamer, many near background
With: Cy3 exosite-II aptamer, 400 nM
Reading: higher = stronger binding
Strand: GGTTGGTGTGGTTGG
`2'F-ANA at 2 3 5 6 7 9 10 12 13 15` — result for “mean fluorescence intensity”: 55.7 a.u.
Under “mean fluorescence intensity”, `2'F-ANA at 1 2 4 5 6 8 12 13 14 15` is recorded as 49 a.u.
For `2'F-ANA at 1 3 5 6 7 9 12 14`, “mean fluorescence intensity” read 54.3 a.u.
For `2'F-ANA at 2 4 9 10`, “mean fluorescence intensity” read 104 a.u.
For `2'F-ANA at 3 6 7 8 9 13 14`, “mean fluorescence intensity” read 613 a.u.
`2'F-ANA at 1 2 7 8 9 12 14 15` — result for “mean fluorescence intensity”: 74.7 a.u.
Under “mean fluorescence intensity”, `2'F-ANA at 1 4 6 7 13` is recorded as 71.9 a.u.
For `2'F-ANA at 6 8 9 10 12 13 14`, “mean fluorescence intensity” read 111 a.u.
Under “mean fluorescence intensity”, `2'F-ANA at 2 3 4 5 6 7 8 14 15` is recorded as 51.7 a.u.
For `2'F-ANA at 1 3 6 9 11 12 13 15`, “mean fluorescence intensity” read 313 a.u.
Under “mean fluorescence intensity”, `2'F-ANA at 1 2 5 7 12 13 15` is recorded as 93.7 a.u.
Under “mean fluorescence intensity”, `2'F-ANA at 1 4 5 7 8 10 15` is recorded as 50.9 a.u.
`2'F-ANA at 1 4 7 10 11 12 13 14 15`: “mean fluorescence intensity” 55.6 a.u.
Under “mean fluorescence intensity”, `2'F-ANA at 1 3 6 8 9 10 11 13 14 15` is recorded as 59.2 a.u.
Under “mean fluorescence intensity”, `2'F-ANA at 3 6 7 9 10 12 13 14 15` is recorded as 369 a.u.
Under “mean fluorescence intensity”, `2'F-ANA at 3 7 9 11 12 15` is recorded as 1260 a.u.
Under “mean fluorescence intensity”, `2'F-ANA at 4 9 11 12 13 14 15` is recorded as 87.2 a.u.
`2'F-ANA at 1 6 10 11 12 13` — result for “mean fluorescence intensity”: 62.3 a.u.
For `2'F-ANA at 1 2 4 6 7 8 9 13 14 15`, “mean fluorescence intensity” read 61.9 a.u.
`2'F-ANA at 1 2 3 5 6 7 10 11 14`: “mean fluorescence intensity” 46.3 a.u.
Under “mean fluorescence intensity”, `2'F-ANA at 3 4 9 10 11 14 15` is recorded as 197 a.u.
Under “mean fluorescence intensity”, `2'F-ANA at 1 5 8 9 10 12 14` is recorded as 69.9 a.u.
For `2'F-ANA at 3 4 6 7 8 9 11 15`, “mean fluorescence intensity” read 525 a.u.

Series 2
Target: Histone acetyltransferase KAT6A, winged helix 1, GST fusion (KAT6A, Homo sapiens, UniProt Q92794, residues 1-85)
Technique: protein binding microarray
Form: double-stranded DNA, one strand shown
Medium: in vitro
Tested at: not given
Setting: 8-mer, flanks averaged, mean of 2 arrays, mostly near background
Baseline: not given
Reading: higher = stronger binding
Construct (chain): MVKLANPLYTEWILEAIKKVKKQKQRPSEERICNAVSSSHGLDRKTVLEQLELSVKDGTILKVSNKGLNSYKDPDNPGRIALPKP
For `CGGAACCC`, the E-score was 0.265.
`AGTGACTG` has an E-score of -0.164.
With `CGGTCACC` the E-score was 0.0966.
The E-score of `GATCAATA` is reported as -0.237.
`CCTTTTCC` gave an E-score of -0.0857.
`ACATTTCT` has an E-score of -0.131.
`ACTAAATC` gave an E-score of -0.0232.
The E-score of `ACAAAGCT` is reported as -0.0457.
`CGCAAAGA` gave an E-score of 0.077.
With `ACCGAGAG` the E-score was -0.0432.
The E-score of `TCCTTCCA` is reported as -0.209.
`GCCGCTCC` has an E-score of 0.416.
For `GATAAACC`, the E-score was 0.0825.
`GCCGTGAA` gave an E-score of 0.405.
The E-score of `CTCAGTGC` is reported as 0.00814.
The E-score of `ACACTGAT` is reported as -0.221.
For `ACGGTCCA`, the E-score was 0.102.
For `ATAAAATG`, the E-score was -0.187.
`CGAAATCA` gave an E-score of -0.0755.
For `AAACTCCC`, the E-score was 0.0749.
`AACTGAAT` gave an E-score of -0.129.
`AGTACAAA` gave an E-score of -0.205.
With `CCCTTCAG` the E-score was -0.12.
`CACACTAA` has an E-score of -0.075.
`GCCTCAGC` has an E-score of 0.0258.

Series 3
Target: Fragile X messenger ribonucleoprotein 1, C-terminal low-complexity region (Fmr1, Mus musculus, UniProt P35922)
Technique: RNA Bind-n-Seq
Form: RNA
Medium: in vitro
Tested at: 200 nM
Setting: whole 134-nt RNA, ends assumed
With: 150 mM LiCl
Baseline: input library
Reading: higher = stronger binding
Each molecule: 7-deaza-guanosine replaces G
For `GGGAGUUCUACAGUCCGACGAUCACCAUGCAGGUGGGCAUCUUUGGGAAGUGGGGCAAGGGGGGGAUAGGGAGGGGGGUAACACUUUGGGAACAGGUGGUCAAAGGUCGUUUCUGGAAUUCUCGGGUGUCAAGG`, the log2 enrichment was 1.26.
With `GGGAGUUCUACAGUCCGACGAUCCCUGUGCUACACAUCGUAUGUACCGAAUCGGGUUUUUUGGGGUUUUUUGGGUUUUUUGGGGAAAGUAUUAUGUUACGCCGUUCGGAUCUGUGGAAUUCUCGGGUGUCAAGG` the log2 enrichment was -0.892.
`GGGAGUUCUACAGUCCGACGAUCCACAGACAACACGCACCCACACAGACACAGAGGGAAGGGGUUGGGAUGGGGACAGGGUGCACCGCAGGGCGGGGUAGGACCCCAGCCCCUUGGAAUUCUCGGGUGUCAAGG` has a log2 enrichment of 0.448.
`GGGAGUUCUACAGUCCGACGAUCGCAGGAAGUAAAAACAAAUGGAAAUGCUUCGGAUAGUGGCAGGGGUGGGGGUUGCUAAGGAAAGCGUGGGAUGGGAGUGGGUAAAGAGUUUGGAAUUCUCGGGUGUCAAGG` gave a log2 enrichment of 1.36.
With `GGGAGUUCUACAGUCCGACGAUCUGGCCCUGGUGGCAUGCGGGGAGGAAGAGGUGGCCUCAUGGAUCGUGGUGGUCCCGGUGGAAUGUUCAGAGGUGGCCGUGCUGGAGACAGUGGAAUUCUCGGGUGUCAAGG` the log2 enrichment was -0.848.
`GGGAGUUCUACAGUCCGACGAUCCCUGUGCUACACAUCGUAUGUACCGAAUCGGGUUUUUGGGUUUUUUUGGGUUUUUUUGGGAAAGUAUUAUGUUACGCCGUUCGGAUCUGCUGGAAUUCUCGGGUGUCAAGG` has a log2 enrichment of -1.05.
`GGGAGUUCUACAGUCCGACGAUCUAACUUUAGAGGAGGAUCUGAUGGAUAUGGCAGUGGACGUUGAUUUGGGGAUGGCUAUAAUGGGUAUGGAGGAGGACCUGGAGGUGGCAAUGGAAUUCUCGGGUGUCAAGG` has a log2 enrichment of 0.412.
With `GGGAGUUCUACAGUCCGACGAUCCCUCAAGUCCUGUGCUACACAUCGUAUGUACCGAAUCGGGGUGGUGGGGUGGAAAGUAUUAUGUUACGCCGUUCGGAUCUGCACUUCCAGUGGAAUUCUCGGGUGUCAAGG` the log2 enrichment was -0.865.
With `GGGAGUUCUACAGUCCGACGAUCCACAGACAACACGCACCCACACAGACACAGAGGGAAGGGGUUGGAAAGGGGACAGGGUGCACAGCAGGGCGGGGUAGGACCCCAGCCCCUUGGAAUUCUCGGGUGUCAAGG` the log2 enrichment was -0.191.
`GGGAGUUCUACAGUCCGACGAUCGUCCUGUGCUACACAUCGUAUGUACCGAAUCGGGGAAAAAAAGGGGUGGGGAAAGGGGAAAGUAUUAUGUUACGCCGUUCGGAUCUGCACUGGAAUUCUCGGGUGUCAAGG` has a log2 enrichment of 0.181.
`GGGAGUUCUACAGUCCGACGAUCAGUCCUGUGCUACACAUCGUAUGUACCGAAUCGGGUUUUUGGGUUUGGGAAAAAGGGAAAGUAUUAUGUUACGCCGUUCGGAUCUGCACUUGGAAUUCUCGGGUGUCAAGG` gave a log2 enrichment of -2.14.

Series 4
Target: RNA binding protein fox-1 homolog 2, RRM domain, GST-SBP tag (RBFOX2, Homo sapiens, UniProt O43251-10, residues 100-194)
Technique: RNA Bind-n-Seq
Form: RNA
Medium: in vitro
Tested at: 365 nM
Setting: natural RNA segment, single round, ends assumed
Baseline: no-protein control
Reading: higher = stronger binding
Construct (chain): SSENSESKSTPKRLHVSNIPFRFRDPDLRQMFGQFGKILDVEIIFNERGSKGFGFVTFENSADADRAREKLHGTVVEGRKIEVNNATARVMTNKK
For `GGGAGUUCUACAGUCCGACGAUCCGAUGAUGCUCCGCCUUUACCCGUUCAGUUGGGAGCUUAUUGUGAGAUUGGAUCAUUUCCUUUUGAGUGUUCUUCUCUUUGGUACAAAAGCUAUUGUGGGUGACAGGAGCUGGAAUUCUCGGGUGCCAA`, “RBNS enrichment (R)” read 0.573.
For `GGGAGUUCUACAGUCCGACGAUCUAACAGUUCCUAAAUUCUAAGGUCCUUGAAUUUGAAGGAAAGACCUUUAGGCCAACUCUGUCUUGGCUGAUAACUCUUACAAUGCACGUUACUAACUUGGUGUCGCUACCUGGAAUUCUCGGGUGCCAA`, “RBNS enrichment (R)” read 28.1.
Under “RBNS enrichment (R)”, `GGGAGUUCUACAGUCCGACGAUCAGUACUGAAGCAUAUAAUGAAAGUAAUUGCUAAGUAGCAGCUUAAAAAUUCAAUUAUCCGAUUGUAUUUAACAUCUUUAAGAGCAUGAUCAUAAAGAGCUAUUUUUGACAUGGAAUUCUCGGGUGCCAA` is recorded as 6.04.
For `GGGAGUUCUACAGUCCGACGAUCGUAAUAUAACAAUAUAUGAUAUAUAAACCUUAAAUGAAAAAAAUGAUCUAUUGCAGAUAUUUGAUGUAGUUUUCUUUUUUAAAUUAAUCAGAAACCCCACUUCCAUUGUAUGGAAUUCUCGGGUGCCAA`, “RBNS enrichment (R)” read 0.792.
Under “RBNS enrichment (R)”, `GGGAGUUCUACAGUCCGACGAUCCUUCUGUCAUCUAGACUGUGCAUCCCUGUAAUACCUGACUGAUCACAGUGUUAGUGCUGGUCAGAGAGACCUCAUCCUGCUCUUUUGUGAUGAACAUAUUCAUGACGCGUUGGAAUUCUCGGGUGCCAA` is recorded as 0.271.
`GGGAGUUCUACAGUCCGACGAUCCAUGAACCUAGAGAUGCUAUCGGUGACAUCCGCCGUUGUGUUGUUCUUUUGCAGCCGUCUGGGCCGCUUCUCGGUGAGCCGCGGUAGGCGUGGCUGCACGGAGUCACAAGUGGAAUUCUCGGGUGCCAA` — result for “RBNS enrichment (R)”: 0.219.
Under “RBNS enrichment (R)”, `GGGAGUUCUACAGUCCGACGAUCGCGAUGCCACGCUUUGCUGCUACCGCCCUGGGCUGGACUGGAGGUGGGCAUGCCACCCUCACACACACAGCUGGGCAAAGCCACAAGGCUGGCCAGCAAGGCAGGUUGGAUGGAAUUCUCGGGUGCCAA` is recorded as 0.516.
`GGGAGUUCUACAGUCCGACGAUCGGGGGCGUUUAUUCAGUCUUAGAGCCACUCGGAAUGGCUGGCCACAGUCUGAGCUGACUCCCUUCAGUGUGACCCCACUGUGUGGUUCCAUGGUCUUCGAUGUGGUUUUCUGGAAUUCUCGGGUGCCAA`: “RBNS enrichment (R)” 0.261.
`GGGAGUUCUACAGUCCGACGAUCAGCAAGUUUGACCUUGGUUCUGUUGCUGAAGCAAAUUUGGAACUUUUCUGUCUCAGUGUGAUCCACUAACCCACAGGAUCAUUUGGAACCUUGAAUAGCUCUGCUUGGACUGGAAUUCUCGGGUGCCAA` — result for “RBNS enrichment (R)”: 0.363.
For `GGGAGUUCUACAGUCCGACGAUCUCUCACCAUCACUGUCCUCCAGGGGCCUCGGACUUUUAGUACUCAAGGCAUGAUGUGGCAGUAGCUGCUUCCCCUACCACUAGCUGCCCCCUCAUGGUCGUCUGGGGGACUGGAAUUCUCGGGUGCCAA`, “RBNS enrichment (R)” read 0.918.
`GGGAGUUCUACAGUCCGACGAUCGUAAUCAAGCACGGAUCUUCUCAGCCAAGCCCAUUUCCUGCCCUGAGGUUUGGGAGUGGGAUAAGGAGAGGAGACCGACUUCGGAGGUCCCUGAAAUAAAGUGAUACAAUUGGAAUUCUCGGGUGCCAA`: “RBNS enrichment (R)” 0.253.
`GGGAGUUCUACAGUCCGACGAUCCUUUAGGAACUGCCUGUCCAUGAGAUGUCCCGUGAGGUCAUAGCUCCCUCUUUAGGGACUGUCUGUCCAGUGACAGAUUAGCCAUAGAGUCAUGACACUUAGUAAGUUUGUGGAAUUCUCGGGUGCCAA`: “RBNS enrichment (R)” 0.349.
